Measured values gathered from unrelated publications.
Each line is one published result; not all experiments were run side by side. ± marks the error that the study gave.
DSTYK: Dual serine/threonine and tyrosine protein kinase (DSTYK, Homo sapiens, UniProt Q6XUX3)
Sequence of UniProt Q6XUX3 (whole entry, looked up): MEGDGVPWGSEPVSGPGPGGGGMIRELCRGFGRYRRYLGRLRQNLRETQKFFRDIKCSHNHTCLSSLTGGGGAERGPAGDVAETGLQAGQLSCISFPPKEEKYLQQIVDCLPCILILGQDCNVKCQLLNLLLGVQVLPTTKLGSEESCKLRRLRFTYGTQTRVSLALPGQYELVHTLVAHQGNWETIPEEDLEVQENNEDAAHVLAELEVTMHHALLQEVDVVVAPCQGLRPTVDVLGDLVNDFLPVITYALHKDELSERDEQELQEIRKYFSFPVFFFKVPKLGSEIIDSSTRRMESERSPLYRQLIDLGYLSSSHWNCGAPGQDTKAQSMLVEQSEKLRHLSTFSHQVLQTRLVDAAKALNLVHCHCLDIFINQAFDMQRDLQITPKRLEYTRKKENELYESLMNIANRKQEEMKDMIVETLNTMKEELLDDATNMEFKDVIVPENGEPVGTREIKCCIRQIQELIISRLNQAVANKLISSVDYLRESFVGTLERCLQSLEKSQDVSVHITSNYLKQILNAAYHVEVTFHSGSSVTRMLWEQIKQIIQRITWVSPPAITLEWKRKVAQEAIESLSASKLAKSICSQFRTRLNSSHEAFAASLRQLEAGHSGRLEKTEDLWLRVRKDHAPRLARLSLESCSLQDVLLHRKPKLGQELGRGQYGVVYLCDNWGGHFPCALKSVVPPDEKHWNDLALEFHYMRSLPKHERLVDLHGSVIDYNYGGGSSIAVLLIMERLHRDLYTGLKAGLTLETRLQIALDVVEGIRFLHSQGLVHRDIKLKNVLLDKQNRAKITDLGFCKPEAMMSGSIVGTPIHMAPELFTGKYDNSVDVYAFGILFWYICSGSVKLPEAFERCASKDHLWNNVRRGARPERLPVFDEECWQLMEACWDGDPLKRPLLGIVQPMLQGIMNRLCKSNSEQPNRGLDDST
Sequence of UniProt Q9H2K8 (whole entry, looked up): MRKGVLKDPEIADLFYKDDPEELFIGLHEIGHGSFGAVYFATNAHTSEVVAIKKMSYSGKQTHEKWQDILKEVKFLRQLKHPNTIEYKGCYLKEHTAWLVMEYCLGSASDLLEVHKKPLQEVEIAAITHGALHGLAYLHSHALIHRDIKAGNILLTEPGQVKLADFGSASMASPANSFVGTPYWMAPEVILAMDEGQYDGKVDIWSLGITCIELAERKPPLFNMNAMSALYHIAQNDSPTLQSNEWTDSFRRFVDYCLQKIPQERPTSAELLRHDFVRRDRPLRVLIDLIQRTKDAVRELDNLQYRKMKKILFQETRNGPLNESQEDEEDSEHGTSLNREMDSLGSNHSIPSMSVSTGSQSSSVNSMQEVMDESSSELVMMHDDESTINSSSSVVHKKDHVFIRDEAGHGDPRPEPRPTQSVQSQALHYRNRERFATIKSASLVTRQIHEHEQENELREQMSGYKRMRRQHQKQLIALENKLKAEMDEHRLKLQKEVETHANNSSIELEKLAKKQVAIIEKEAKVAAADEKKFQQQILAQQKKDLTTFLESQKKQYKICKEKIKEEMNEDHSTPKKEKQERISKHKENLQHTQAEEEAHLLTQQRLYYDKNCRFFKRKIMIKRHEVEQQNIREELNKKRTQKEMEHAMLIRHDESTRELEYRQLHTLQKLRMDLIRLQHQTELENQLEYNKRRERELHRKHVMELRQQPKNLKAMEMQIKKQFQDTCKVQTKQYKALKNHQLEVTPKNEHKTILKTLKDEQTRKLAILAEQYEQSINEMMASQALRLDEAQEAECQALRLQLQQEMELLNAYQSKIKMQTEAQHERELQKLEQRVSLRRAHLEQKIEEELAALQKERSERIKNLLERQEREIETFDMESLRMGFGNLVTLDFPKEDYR
Sequence of UniProt Q96PY6 (whole entry, looked up): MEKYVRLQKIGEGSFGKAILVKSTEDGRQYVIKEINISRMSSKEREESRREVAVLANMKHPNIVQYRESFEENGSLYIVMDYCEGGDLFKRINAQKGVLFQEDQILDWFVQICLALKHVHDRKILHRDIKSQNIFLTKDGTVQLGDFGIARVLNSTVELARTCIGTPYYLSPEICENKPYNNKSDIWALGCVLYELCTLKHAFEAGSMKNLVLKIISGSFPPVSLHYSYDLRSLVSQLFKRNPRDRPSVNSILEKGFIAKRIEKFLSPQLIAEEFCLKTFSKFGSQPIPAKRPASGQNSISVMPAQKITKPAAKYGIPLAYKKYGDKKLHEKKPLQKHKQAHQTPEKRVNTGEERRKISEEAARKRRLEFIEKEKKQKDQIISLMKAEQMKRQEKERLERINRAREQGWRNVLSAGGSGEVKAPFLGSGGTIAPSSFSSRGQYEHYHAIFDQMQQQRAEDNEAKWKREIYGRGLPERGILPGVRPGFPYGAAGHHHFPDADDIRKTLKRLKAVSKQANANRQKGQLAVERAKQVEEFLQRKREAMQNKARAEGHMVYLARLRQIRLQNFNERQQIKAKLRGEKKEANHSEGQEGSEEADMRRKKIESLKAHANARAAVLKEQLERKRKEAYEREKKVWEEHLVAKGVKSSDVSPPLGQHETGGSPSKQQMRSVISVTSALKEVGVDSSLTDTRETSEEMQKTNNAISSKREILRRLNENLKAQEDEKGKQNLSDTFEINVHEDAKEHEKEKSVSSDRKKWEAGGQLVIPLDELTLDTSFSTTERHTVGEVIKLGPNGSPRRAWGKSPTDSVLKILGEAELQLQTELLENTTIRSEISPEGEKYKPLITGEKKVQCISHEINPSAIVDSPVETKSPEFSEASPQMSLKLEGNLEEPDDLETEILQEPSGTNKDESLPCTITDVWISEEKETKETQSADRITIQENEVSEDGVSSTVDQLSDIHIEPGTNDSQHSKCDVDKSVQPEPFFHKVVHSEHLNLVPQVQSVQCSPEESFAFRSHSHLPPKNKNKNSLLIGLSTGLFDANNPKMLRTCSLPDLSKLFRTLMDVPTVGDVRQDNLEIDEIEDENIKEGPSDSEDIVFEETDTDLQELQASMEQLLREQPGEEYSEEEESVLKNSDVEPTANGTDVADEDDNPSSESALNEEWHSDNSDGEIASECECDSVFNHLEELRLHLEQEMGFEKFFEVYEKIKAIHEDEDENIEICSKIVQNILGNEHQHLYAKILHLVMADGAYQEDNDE
Sequence of UniProt P36507 (whole entry, looked up): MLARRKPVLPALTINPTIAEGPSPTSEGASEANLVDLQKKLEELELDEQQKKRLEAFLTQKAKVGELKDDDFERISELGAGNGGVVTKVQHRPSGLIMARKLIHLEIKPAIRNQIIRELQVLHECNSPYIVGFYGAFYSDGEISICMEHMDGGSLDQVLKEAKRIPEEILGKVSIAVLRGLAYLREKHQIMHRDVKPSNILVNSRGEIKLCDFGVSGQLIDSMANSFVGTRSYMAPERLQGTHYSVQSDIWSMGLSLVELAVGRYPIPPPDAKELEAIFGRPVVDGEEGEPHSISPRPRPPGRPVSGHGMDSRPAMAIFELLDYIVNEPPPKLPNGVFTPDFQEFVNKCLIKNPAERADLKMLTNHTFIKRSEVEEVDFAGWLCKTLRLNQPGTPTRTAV
Sequence of UniProt Q13233 (whole entry, looked up): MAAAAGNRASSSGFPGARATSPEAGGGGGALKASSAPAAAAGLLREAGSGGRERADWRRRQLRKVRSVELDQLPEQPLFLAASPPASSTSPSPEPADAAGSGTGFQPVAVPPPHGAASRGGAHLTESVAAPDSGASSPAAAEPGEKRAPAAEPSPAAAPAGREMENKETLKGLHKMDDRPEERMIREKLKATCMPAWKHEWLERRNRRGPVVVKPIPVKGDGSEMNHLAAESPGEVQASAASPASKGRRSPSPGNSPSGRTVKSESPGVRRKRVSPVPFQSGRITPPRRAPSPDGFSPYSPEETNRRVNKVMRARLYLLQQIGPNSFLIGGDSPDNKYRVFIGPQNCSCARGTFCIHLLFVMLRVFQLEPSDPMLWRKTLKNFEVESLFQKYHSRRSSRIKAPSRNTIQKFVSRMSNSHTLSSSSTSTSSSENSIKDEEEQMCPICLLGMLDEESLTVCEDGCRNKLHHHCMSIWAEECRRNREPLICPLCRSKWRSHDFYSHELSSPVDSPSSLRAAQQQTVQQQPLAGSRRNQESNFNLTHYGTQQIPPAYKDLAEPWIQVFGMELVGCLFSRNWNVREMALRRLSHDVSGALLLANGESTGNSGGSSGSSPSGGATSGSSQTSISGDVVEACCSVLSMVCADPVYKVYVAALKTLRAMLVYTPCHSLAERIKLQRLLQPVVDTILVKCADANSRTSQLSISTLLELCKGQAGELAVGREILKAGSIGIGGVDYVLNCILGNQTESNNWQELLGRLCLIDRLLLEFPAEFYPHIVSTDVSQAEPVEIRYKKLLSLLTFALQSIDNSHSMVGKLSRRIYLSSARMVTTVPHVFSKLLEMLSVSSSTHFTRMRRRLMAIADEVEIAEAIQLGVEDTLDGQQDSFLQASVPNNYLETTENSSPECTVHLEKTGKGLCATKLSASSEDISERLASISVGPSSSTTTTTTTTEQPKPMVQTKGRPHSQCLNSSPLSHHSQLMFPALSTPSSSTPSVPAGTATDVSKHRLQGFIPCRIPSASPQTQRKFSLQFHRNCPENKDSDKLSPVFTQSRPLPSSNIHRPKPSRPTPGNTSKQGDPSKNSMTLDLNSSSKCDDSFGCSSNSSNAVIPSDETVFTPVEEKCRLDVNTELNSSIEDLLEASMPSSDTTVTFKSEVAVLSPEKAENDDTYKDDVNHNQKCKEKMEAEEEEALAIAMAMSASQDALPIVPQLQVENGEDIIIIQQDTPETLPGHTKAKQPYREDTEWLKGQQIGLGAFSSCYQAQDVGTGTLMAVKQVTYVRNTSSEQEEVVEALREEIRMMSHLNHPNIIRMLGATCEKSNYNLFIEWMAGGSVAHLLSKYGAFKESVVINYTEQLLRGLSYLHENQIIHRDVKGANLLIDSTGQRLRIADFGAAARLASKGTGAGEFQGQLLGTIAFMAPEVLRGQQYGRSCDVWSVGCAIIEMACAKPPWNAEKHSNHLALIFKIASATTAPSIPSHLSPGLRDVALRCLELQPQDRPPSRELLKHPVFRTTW

For `C=CC(=O)N1CCC([C@@H]2CCNc3c(C(N)=O)c(-c4ccc(Oc5ccccc5)cc4)nn32)CC1`, the remaining activity was 55.1 ± 0.4% (Dual specificity mitogen-activated protein kinase kinase 2 (MAP2K2, Homo sapiens, UniProt P36507); kinase activity, inhibitor, HotSpot radiometric; 100 nM, added: ATP 10 µM).
With `Cc1cc(Nc2cc(N3CCN(C)CC3)nc(Sc3ccc(NC(=O)C4CC4)cc3)n2)[nH]n1` the remaining activity was 85% (Serine/threonine-protein kinase TAO3 (TAOK3, Homo sapiens, UniProt Q9H2K8); kinase activity, KinaseProfiler; 0.03 µM, species human; relative to: control).
The remaining activity of `COc1cc(-c2cncc3c2CN(C)Cc2cc(N4CCNCC4)ccc2-3)cc(OC)c1OC` is reported as 106% (DNA-dependent protein kinase catalytic subunit (PRKDC, Homo sapiens, UniProt P78527); kinase activity; 1 µM, human enzyme, added: ATP 10 µM; relative to: DMSO control).
With `C=CC(=O)N1CCC[C@@H](n2nc(-c3ccc(Oc4ccccc4)cc3)c3c(N)ncnc32)C1` the remaining activity was 13.4% (Tyrosine-protein kinase Fes/Fps (FES, Homo sapiens, UniProt P07332); 10 µM).
`COc1ccc(F)cc1C(=O)NCc1ccc(-c2nn([C@@H](C)C(F)(F)F)c(N)c2C(N)=O)cc1` gave a remaining activity of 10.3 ± 0.3% (Protein-tyrosine kinase 6 (PTK6, Homo sapiens, UniProt Q13882); 1000 nM, added: ATP at Km).
With `O=C1NC(=O)/C(=C/c2ccc(-c3ccc(F)cc3O)o2)S1` the remaining activity was 56% (Mitogen-activated protein kinase kinase kinase 1 (MAP3K1, Homo sapiens, UniProt Q13233); enzyme activity; 10 µM).
`C[C@@H](Oc1ccc(S(C)(=O)=O)cc1C(=O)N1C[C@@H]2C[C@]2(c2cc(C(F)(F)F)on2)C1)C(F)(F)F` has a remaining activity of 94.3% (Sodium- and chloride-dependent glycine transporter 1 (SLC6A9, Homo sapiens, UniProt P48067, L476T); glycine uptake, inhibitor, [3H]glycine uptake; 0.001 µM, L422T mutant, log concentration 1, added: [3H]glycine; relative to: no inhibitor).
`O=C(NC1CCC1)c1ccc2nc(-c3cccc(NS(=O)(=O)NCCN4CCCCC4)c3)cn2c1` gave a remaining activity of 88% (DSTYK; enzyme activity; 10 µM).
`O=C(O)c1ccc(Nc2ncc3c(n2)-c2ccc(Cl)cc2C(c2c(F)cccc2F)=NC3)cc1` has a remaining activity of 107% (human TSSK1(h); kinase activity; 1 µM).
The remaining activity of `COc1cc(N2CCN(C)CC2)ccc1Nc1nc(N)n(C(=S)NCc2c(Cl)cccc2Cl)n1` is reported as 27% (Serine/threonine-protein kinase Nek1 (NEK1, Homo sapiens, UniProt Q96PY6); enzyme activity; 10 µM; relative to: control).
With `COc1cc(F)ccc1-c1ncnc(Nc2cccc(C[S@](C)(=N)=O)c2)n1` the remaining activity was 91% (Serine/threonine-protein kinase Chk2 (CHEK2, Homo sapiens, UniProt O96017); kinase activity; 10 µM, added: 10 µM ATP).
`CNc1ncc2c(/C=C/C(=O)N3CCC(OC)CC3)nn(Cc3cccc(C(F)(F)F)c3)c2n1` has a remaining activity of 99% (DSTYK; kinase activity, inhibitor; 1 µM; relative to: untreated control).
The remaining activity of `COc1cc(Nc2ncc3c(n2)-c2ccc(Cl)cc2C(c2c(F)cccc2OC)=NC3)ccc1C(=O)O` is reported as 104% (STK24; kinase activity; 1 µM).

Excerpt of the above:
With `O=C1NC(=O)/C(=C/c2ccc(-c3ccc(F)cc3O)o2)S1` the remaining activity was 56% (Mitogen-activated protein kinase kinase kinase 1 (MAP3K1, Homo sapiens, UniProt Q13233); enzyme activity; 10 µM).
